{"data": "Assay results gathered from unrelated publications", "note": "Every numbered part comes from another study and shows a few of its results, in no order."}
{"data": "Sample 1", "target": "RING finger protein unkempt homolog, zinc fingers 1-6, GST-SBP tag (UNK, Homo sapiens, UniProt Q9C0B0, residues 30-357)", "method": "RNA Bind-n-Seq", "form": "RNA", "matrix": "in vitro", "tested at": "not given", "setting": "RNA with constant flanks, human-mouse chimeric sites, ends assumed", "reference": "input RNA pool", "reading": "higher = stronger binding", "UniProt Q9C0B0, sequence (30-357, looked up)": "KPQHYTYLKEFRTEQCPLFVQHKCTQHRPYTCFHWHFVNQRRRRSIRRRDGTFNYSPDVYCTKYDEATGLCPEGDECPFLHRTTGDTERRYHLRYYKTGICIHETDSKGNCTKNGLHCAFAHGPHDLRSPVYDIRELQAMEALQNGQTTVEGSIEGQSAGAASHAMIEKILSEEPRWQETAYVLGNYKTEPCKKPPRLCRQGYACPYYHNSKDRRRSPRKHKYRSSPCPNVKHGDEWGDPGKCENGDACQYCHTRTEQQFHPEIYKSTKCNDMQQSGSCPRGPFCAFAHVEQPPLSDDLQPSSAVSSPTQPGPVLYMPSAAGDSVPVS"}
{"Oligonucleotide": "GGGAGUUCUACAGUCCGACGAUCCUGGCACUCUAUCAGAUAGAUUACUUUUUUAAUGUAGAUGUAAUUUUAAAAAUGAAUGGCUACUUUACACGUUUAACUAGGGUUUUACUAUAUAUGUGUGUGUAUAUAUAUAUAUAUAUACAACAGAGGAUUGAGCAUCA", "bound/input enrichment [ratio]": 31.4}
{"Oligonucleotide": "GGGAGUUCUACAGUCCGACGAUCCUGAGGAUACCACUGAAGAGACCUUAAAAGAAUCAUUUGAGGGCUCUGUUCGUGCAAGAAUAGUCACUGAUCGGGAAAACUGGGUCCCCAAAGGGUUUGGUUUUGUAAGACUUCAACGUGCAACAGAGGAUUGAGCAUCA", "bound/input enrichment [ratio]": 0.182}
{"Oligonucleotide": "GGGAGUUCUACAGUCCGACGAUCAAAGAACUACUGAGGCAAGGCAGCAAAUUUAGAAGAAACAUUUCAACAAUAUUGAUAGAGUUAGGAUUCCAAAUUAAAAAGAAAACUAAGACAUUAUACAUCAACAAAGCCAAUGUGUGGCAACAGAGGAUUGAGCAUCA", "bound/input enrichment [ratio]": 20.2}
{"Oligonucleotide": "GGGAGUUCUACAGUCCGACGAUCGGCUGCUACUAUUCUCCGGGAGCCGUCUGGAGUUCCCGCCGGAGCGCGGCCAGACUAAUUUUAGAAAAUGCCAAGUAGGAAGUUUGUUGAGGGUGAAGUGGUCAGAGGCCGAUGGCCUGGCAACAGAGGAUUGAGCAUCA", "bound/input enrichment [ratio]": 2.58}
{"Oligonucleotide": "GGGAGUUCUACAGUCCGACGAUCCCCCAAUACCAUUUGCAGGUCUGGAACUGCACUCUCUUUUUUAAAAAACAUGUAUACAUUUUAGGGCUGUAGACUUACUUUCCUAUUUUUGUUUUUCAUUGCUGACUUUUGAGCACAGAACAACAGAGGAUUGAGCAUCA", "bound/input enrichment [ratio]": 1.38}
{"Oligonucleotide": "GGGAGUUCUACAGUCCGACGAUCGUACUGCAACAGCAGGGAAAACUGCAGGAAGCUCUGAUGCAUUAUAAGGAGGCUAUUCGAAUCAGUCCUACAUUUGCUGAUGCCUACUCUAAUAUGGGAAACACUCUAAAGGAGAUGCAGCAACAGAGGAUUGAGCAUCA", "bound/input enrichment [ratio]": 0.215}
{"Oligonucleotide": "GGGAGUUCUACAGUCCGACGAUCACCUCCCCCUCCCGCCUCACCCCACCCCCGCUUUUUGGAAAGUUUUUGGCGUUUCUUUUCCUUCCCCAGUUAGAAUUAUUACAGUUUCCCCCGCAAGUGGGGCUUGAAGGGCUUGACGGACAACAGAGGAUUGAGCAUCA", "bound/input enrichment [ratio]": 20.2}
{"Oligonucleotide": "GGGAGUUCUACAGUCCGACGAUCAAAGAGAAACUAAAGCAACUAAUAGAGAAGAGGAUUGGGCAAAGAGAAUUUCAUAGAAAACUAGGAUUUAUUAGCAAACAUGAGUUAUAUUCCAGAGCGUCUCAGAAACCCCAGCCAAACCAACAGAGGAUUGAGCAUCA", "bound/input enrichment [ratio]": 20.3}
{"data": "Sample 2", "target": "Fragile X messenger ribonucleoprotein 1, C-terminal low-complexity region (Fmr1, Mus musculus, UniProt P35922)", "method": "RNA Bind-n-Seq", "form": "RNA", "matrix": "in vitro", "tested at": "200 nM", "setting": "whole 134-nt RNA, ends assumed", "added": "150 mM LiCl", "reference": "input library", "reading": "higher = stronger binding", "each molecule": "7-deaza-guanosine replaces G"}
{"Oligonucleotide": "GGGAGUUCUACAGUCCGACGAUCACCAUGCAGGUGGGCAUCUUUGGGAAGUGGGGCAAGGGGGGGAUAGGGAGGGGGGUAACACUUUGGGAACAGGUGGUCGCAGGUCGUUUCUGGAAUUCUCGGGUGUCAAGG", "log2 enrichment": 1.12}
{"Oligonucleotide": "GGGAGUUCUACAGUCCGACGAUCCCUCAAGUCCUGUGCUACACAUCGUAUGUACCGAAUCGGAGGUUUUUGGUGGAAAGUAUUAUGUUACGCCGUUCGGAUCUGCACUUCCAGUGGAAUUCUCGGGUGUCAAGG", "log2 enrichment": -0.687}
{"Oligonucleotide": "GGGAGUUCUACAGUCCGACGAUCUGGUCAUGGGAUGGAGAACCAGUUCUUCCCUUAUAUCUUCACCAUAUGACUAUUGACCCUGUCUUAGGCUGCUCCCAGGCCGUUCCAUUGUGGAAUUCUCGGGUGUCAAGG", "log2 enrichment": -0.0965}
{"Oligonucleotide": "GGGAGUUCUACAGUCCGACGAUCAGUCCUGUGCUACACAUCGUAUGUACCGAAUCGGUUUUUGGGUUUUUGGGGUUUUUGGAAAGUAUUAUGUUACGCCGUUCGGAUCUGCACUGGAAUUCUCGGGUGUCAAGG", "log2 enrichment": -1.09}
{"Oligonucleotide": "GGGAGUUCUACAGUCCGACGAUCUCAAGUCCUGUGCUACACAUCGUAUGUACCGAAUCGGGGCCGGGGCCGGGGCCGGAAAGUAUUAUGUUACGCCGUUCGGAUCUGCACUUCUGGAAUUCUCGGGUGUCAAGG", "log2 enrichment": -0.152}
{"Oligonucleotide": "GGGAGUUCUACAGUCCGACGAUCAGUCCUGUGCUACACAUCGUAUGUACCGAAUCGGGAAAAAAAGGGUUUUUGGGUGGGAAAGUAUUAUGUUACGCCGUUCGGAUCUGCACUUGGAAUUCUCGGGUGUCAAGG", "log2 enrichment": -2.2}
{"Oligonucleotide": "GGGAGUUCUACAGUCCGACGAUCUCCUGUGCUACACAUCGUAUGUACCGAAUCAAACCCCCCCAAACCCCCCCAAACCCAAAAAAGUAUUAUGUUACGCCGUUCGGAUCUGCAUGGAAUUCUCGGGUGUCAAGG", "log2 enrichment": 1.03}
{"Oligonucleotide": "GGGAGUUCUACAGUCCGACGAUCAGUCCUGUGCUACACAUCGUAUGUACCGAAUCGGGGCCCCGGGGCCCCGGGGCCCCGGAAAGUAUUAUGUUACGCCGUUCGGAUCUGCACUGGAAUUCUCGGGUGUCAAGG", "log2 enrichment": 0.455}
{"data": "Sample 3", "target": "Histone acetyltransferase KAT6A, both winged helices, GST fusion (KAT6A, Homo sapiens, UniProt Q92794, residues 1-181)", "method": "protein binding microarray", "form": "double-stranded DNA, one strand shown", "matrix": "in vitro", "tested at": "not given", "setting": "8-mer, flanks averaged, mean of 2 arrays, mostly near background", "reference": "not given", "reading": "higher = stronger binding", "Construct (chain)": "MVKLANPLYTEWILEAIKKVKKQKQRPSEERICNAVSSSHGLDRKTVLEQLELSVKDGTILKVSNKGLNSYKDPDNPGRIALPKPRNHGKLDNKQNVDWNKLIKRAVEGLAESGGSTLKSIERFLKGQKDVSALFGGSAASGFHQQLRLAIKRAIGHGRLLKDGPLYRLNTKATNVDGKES"}
{"Oligonucleotide": "AATTCAGC", "E-score": -0.0265}
{"Oligonucleotide": "CGTTTTCA", "E-score": 0.145}
{"Oligonucleotide": "CTATAGCA", "E-score": 0.061}
{"Oligonucleotide": "GACTCTCC", "E-score": -0.192}
{"Oligonucleotide": "ATTACTCG", "E-score": 0.0285}
{"Oligonucleotide": "CCATTCGC", "E-score": -0.028}
{"Oligonucleotide": "GCGCCTCA", "E-score": 0.243}
{"Oligonucleotide": "CTTTTATA", "E-score": -0.018}
{"Oligonucleotide": "ACTACCGA", "E-score": 0.0511}
{"Oligonucleotide": "AGAGGTCA", "E-score": -0.049}
{"Oligonucleotide": "AAGTGGCG", "E-score": 0.0191}
{"Oligonucleotide": "CATTCCCA", "E-score": -0.0955}
{"Oligonucleotide": "GACTATGA", "E-score": -0.124}
{"Oligonucleotide": "ACAGCTTC", "E-score": -0.044}
{"Oligonucleotide": "CTGTCGAA", "E-score": -0.0471}
{"Oligonucleotide": "ATGCACGA", "E-score": -0.0772}
{"Oligonucleotide": "AAGGAAGG", "E-score": -0.198}
{"Oligonucleotide": "GCAGTTCA", "E-score": 0.084}
{"Oligonucleotide": "AATATCCC", "E-score": 0.0116}
{"data": "Sample 4", "target": "Prothrombin, mature alpha-thrombin (F2, Homo sapiens, UniProt P00734)", "method": "aptamer microarray, sandwich", "form": "DNA with 2'F-ANA", "matrix": "in vitro", "tested at": "200 nM", "setting": "whole 15-mer aptamer, many near background", "added": "Cy3 exosite-II aptamer, 400 nM", "reading": "higher = stronger binding", "oligonucleotide": "GGTTGGTGTGGTTGG"}
{"Modification": "2'F-ANA at 2 3 5 6 7 8 9 14 15", "mean fluorescence intensity [a.u.]": 52.8}
{"Modification": "2'F-ANA at 1 2 4 6 8 9 10 12", "mean fluorescence intensity [a.u.]": 57.6}
{"Modification": "2'F-ANA at 2 3 5 7 8 11 14 15", "mean fluorescence intensity [a.u.]": 61.4}
{"Modification": "2'F-ANA at 2 3 4 8 11 13 14 15", "mean fluorescence intensity [a.u.]": 248}
{"Modification": "2'F-ANA at 1 3 4 5 11 13 14", "mean fluorescence intensity [a.u.]": 54.2}
{"Modification": "2'F-ANA at 3 4 6 8 9 14 15", "mean fluorescence intensity [a.u.]": 250}
{"Modification": "2'F-ANA at 4 6 8 11 12 13", "mean fluorescence intensity [a.u.]": 341}
{"Modification": "2'F-ANA at 3 4 6 7 14", "mean fluorescence intensity [a.u.]": 302}
{"Modification": "2'F-ANA at 2 4 6 7 8 10 11 15", "mean fluorescence intensity [a.u.]": 77.4}
{"Modification": "2'F-ANA at 3 7 8 10 11 14 15", "mean fluorescence intensity [a.u.]": 464}
{"Modification": "2'F-ANA at 2 4 5 7 10 12", "mean fluorescence intensity [a.u.]": 51.4}
{"Modification": "2'F-ANA at 1 3 6 9 10 11 13", "mean fluorescence intensity [a.u.]": 71.5}
{"Modification": "2'F-ANA at 3 9 13 14 15", "mean fluorescence intensity [a.u.]": 533}
{"Modification": "2'F-ANA at 2 4 6 7 9 10 11 13 14", "mean fluorescence intensity [a.u.]": 58.2}
{"Modification": "2'F-ANA at 1 2 3 6 7 12 14", "mean fluorescence intensity [a.u.]": 82.2}
{"Modification": "2'F-ANA at 1 4 5 6 10 11", "mean fluorescence intensity [a.u.]": 57.3}
{"Modification": "2'F-ANA at 6 7 9 10 11 14 15", "mean fluorescence intensity [a.u.]": 109}
{"Modification": "2'F-ANA at 2 3 6", "mean fluorescence intensity [a.u.]": 877}
{"Modification": "2'F-ANA at 2 3 4 6 7 8 9 10 11", "mean fluorescence intensity [a.u.]": 216}
{"Modification": "2'F-ANA at 3 10 12", "mean fluorescence intensity [a.u.]": 711}
{"Modification": "2'F-ANA at 1 2 3 5 7 8 9 13 15", "mean fluorescence intensity [a.u.]": 50.6}
{"Modification": "2'F-ANA at 3 4 6 8 13 14", "mean fluorescence intensity [a.u.]": 299}
{"Modification": "2'F-ANA at 1 2 4 6 8 9 11 12 14 15", "mean fluorescence intensity [a.u.]": 54.8}
{"Modification": "2'F-ANA at 3 4 5 6 9 13 14", "mean fluorescence intensity [a.u.]": 120}
